Measured values collected from several papers.
Each line is one published result; not all experiments were run side by side. ± gives the spread as reported.

| Compound | tested on | assay | test system | conditions | quantity | value |
| --- | --- | --- | --- | --- | --- | --- |
| CN(C)c1ccc(/C=C/c2cc(/C=C3\Sc4ccccc4N3CCCN3CCCC3)c3ccccc3[n+]2C)cc1 | 16HBE | cell growth or viability, MTT | – | 36 h | IC50 | 8490 nM |
| CCN(C(=O)c1cc(F)ccc1Oc1nncnc1N1CCC2(C1)CN([C@H](CCCN(C)CCOC)C(C)C)C2)C(C)C | OCI-AML-3 (NPM1c) | inhibitor, QuantiGene multiplex, item: MEIS1 mRNA | – | – | IC50 | 141 ± 80 nM |
| CO[C@@H](C[C@H]1C(C)=CC[C@@H]2[C@]3(C)C[C@H](O[C@@H]4O[C@@H](C)[C@H](OC(=O)c5cccc(O)c5)[C@@H](O[C@@H]5O[C@H](CO)[C@@H](O)[C@H](O)[C@H]5NC(C)=O)[C@H]4O)[C@@H](O)C(C)(C)[C@H]3CC[C@]21C)[C@H](N)C(=O)O | 3T3 fibroblasts | cell viability, CCK-8 | – | 72 h | IC50 | > 10000 nM |
| CC(C)c1ccc(N(C)c2ccc3c(c2)OCC[C@H]3CNc2cnccc2C(=O)O)cc1 | TE-11 | cell viability, CellTiter-Glo | – | 7 days | IC50 | 4.28 nM |
| F[C@@H]1[C@H](c2ccc(-c3ccc(N4CCCC4)nc3)cc2)[C@H](F)[C@H](F)C[C@@H]1F | – | liver microsome stability | mouse liver microsomes | 1 µM | hepatic clearance | 58 mL/min/kg |
| COc1ccc(CNC[C@@](O)(COCc2ccccc2)[C@@H]2CC[C@@H](C)C[C@H]2OCc2ccccc2)cc1 | A2780 | cell growth or viability, MTT | – | 72 h | IC50 | 3790 nM |
| CC(=O)[O][Pt]([NH2])([NH2])([Cl])([Cl])[O]C(=O)CCCc1ccccc1 | 2008 ovarian adenocarcinoma | cytotoxicity, MTT | – | 72 h | IC50 | 780 ± 200 nM |
| NC(=O)c1ccc(-c2ccccc2Cl)c2c3c([nH]c12)CC[C@@H](N)C3 | Pfeiffer | cell growth or viability | – | – | IC50 | 12.4 nM |
| Cc1ccc([N+](=O)[O-])cc1S(=O)(=O)N(C)/N=C/c1cnc2ccc(Br)cn12 | SK-MEL-2 | cell growth or viability | – | – | IC50 | 317 nM |
| CN1CCC(N[C@@H]2CCc3[nH]c4c(C(N)=O)ccc(-c5ccccc5Cl)c4c3C2)CC1 | Pfeiffer | cell growth or viability | – | – | IC50 | 14.8 nM |
| Cc1c(C)c2cccnc2c2ncccc12 | BEL-7404 | cell growth or viability, MTT | – | 48 h | IC50 | > 50000 nM |
| CC1(C)CC(=O)C(C2C3=C(CC(C)(C)CC3=O)Oc3ccccc32)=C(O)C1 (stereo not shown) | 3T3-L1 mature adipocytes | MTT | – | 72 h | IC50 | > 1000 µg/mL |
| CNS(=O)(=O)Nc1nccc(Cc2c(C)c3ccc(Oc4ncccc4F)cc3oc2=O)c1F | CMK-11-5 | cell viability | – | 7 days | IC50 | > 1000 nM |
| C=CC(=O)N1CCCC(n2c(=O)c3ncccc3n(Cc3ccc(Oc4ccccc4)cc3)c2=O)C1 (stereo not shown) | Karpas-1718 | cell growth or viability, MTT | – | 72 h | IC50 | 300 nM |
| CCOc1cncc(-c2ccc(NC(=O)C3(c4ccnc(NS(=O)(=O)C5CC5)n4)CCOCC3)nc2)n1 | LS174T | cell growth or viability, ATP luminescence | – | 72 h | IC50 | 231 nM |
| CNC(=O)c1ccc(C2CCCCC2)cc1 | – | liver microsome stability | dog liver microsomes | 1 µM | hepatic clearance | 30 mL/min/kg |
| O=C1CCP(=O)(c2ccccc2)CC1 | HaCaT | cell growth or viability, MTT | – | 72 h | IC50 | > 100000 nM |
| c1ccc2nc3c4cccnc4c4ncccc4c3nc2c1 | BEL-7404 | cell growth or viability, MTT | – | 48 h | IC50 | > 50000 nM |
| Cn1ncc(-c2ccc3c(=O)[nH]nc(CN)c3c2)c1-c1c(F)c(Cl)cc(OC2CC2)c1C#N | NCI-H2052 | cell viability, inhibitor, CellTiter-Glo | – | 120 h, baseline-subtracted | IC50 | 20 nM |
